Results pooled from the literature.
Every numbered part comes from another study and shows a few of its results, in no order. Several values in a cell are separate wells, animals, samples, runs or records.
Sequence of UniProt P17948 (whole entry, looked up): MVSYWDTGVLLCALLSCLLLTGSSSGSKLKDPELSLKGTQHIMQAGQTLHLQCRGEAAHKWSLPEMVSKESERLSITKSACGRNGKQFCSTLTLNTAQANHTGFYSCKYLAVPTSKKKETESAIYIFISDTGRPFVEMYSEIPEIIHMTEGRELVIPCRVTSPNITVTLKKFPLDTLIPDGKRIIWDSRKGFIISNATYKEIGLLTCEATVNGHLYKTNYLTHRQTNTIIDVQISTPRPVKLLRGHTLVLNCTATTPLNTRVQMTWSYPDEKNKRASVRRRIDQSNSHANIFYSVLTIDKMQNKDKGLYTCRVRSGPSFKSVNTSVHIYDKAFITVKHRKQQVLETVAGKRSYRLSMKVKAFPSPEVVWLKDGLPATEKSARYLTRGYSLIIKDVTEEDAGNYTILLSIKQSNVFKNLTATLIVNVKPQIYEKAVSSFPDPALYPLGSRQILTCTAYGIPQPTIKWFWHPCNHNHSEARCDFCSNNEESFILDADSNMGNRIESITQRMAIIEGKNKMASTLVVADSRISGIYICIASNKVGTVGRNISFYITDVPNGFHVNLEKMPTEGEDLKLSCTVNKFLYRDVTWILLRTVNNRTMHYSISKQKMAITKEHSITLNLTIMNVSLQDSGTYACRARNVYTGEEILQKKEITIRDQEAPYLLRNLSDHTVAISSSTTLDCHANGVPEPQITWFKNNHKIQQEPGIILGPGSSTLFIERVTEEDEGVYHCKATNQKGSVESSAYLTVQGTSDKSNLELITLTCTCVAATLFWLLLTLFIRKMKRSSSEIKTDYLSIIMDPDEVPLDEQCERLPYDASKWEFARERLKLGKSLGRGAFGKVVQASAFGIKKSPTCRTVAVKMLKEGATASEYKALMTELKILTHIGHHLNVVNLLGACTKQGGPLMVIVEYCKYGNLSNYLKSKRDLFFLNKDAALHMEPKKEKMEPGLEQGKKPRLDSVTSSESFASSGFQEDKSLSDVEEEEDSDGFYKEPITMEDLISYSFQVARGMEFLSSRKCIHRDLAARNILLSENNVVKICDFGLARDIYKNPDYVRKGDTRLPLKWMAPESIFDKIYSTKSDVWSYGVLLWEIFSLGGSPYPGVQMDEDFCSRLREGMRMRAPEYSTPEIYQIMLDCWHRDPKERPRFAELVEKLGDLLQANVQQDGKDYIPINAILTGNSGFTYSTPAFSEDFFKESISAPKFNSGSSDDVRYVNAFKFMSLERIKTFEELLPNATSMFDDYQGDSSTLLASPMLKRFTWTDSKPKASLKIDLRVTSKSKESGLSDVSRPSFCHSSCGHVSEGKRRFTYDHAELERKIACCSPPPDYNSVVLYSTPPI
Sequence of UniProt Q9UF33 (whole entry, looked up): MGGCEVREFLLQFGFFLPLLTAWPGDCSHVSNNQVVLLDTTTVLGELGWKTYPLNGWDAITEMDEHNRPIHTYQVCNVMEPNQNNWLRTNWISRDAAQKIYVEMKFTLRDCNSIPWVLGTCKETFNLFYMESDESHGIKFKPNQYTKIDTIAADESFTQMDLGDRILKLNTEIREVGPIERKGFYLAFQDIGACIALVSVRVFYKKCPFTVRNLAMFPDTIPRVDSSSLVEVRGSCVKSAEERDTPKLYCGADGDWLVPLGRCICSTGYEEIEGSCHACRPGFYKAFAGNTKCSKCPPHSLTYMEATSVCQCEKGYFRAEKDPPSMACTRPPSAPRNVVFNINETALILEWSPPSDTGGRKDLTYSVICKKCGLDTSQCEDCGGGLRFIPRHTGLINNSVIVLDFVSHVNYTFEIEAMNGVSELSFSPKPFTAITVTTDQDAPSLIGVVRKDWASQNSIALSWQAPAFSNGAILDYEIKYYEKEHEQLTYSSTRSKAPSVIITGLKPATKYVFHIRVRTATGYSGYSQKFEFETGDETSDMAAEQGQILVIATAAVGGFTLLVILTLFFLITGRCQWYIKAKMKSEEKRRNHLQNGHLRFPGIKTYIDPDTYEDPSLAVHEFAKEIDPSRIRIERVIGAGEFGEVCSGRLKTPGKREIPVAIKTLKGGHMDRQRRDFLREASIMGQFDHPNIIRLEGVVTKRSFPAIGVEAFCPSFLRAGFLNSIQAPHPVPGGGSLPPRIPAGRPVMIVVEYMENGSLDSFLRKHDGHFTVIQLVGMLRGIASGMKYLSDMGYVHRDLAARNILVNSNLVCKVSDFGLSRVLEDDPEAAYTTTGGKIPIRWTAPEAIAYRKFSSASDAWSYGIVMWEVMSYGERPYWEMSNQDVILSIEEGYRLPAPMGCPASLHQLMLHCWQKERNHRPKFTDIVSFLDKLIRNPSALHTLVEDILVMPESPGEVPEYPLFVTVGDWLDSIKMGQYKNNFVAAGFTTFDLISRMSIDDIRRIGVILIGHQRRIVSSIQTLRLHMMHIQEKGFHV

Block 1 — observed: cell-free assay; technique: competition with immobilised ligand; tested at: 1 µM; endpoint: remaining binding
Compound: CCCOc1ccc([C@H]2[C@H](C(=O)O)[C@@H](c3ccc4c(c3)OCO4)CN2CC(=O)Nc2c(CC)cccc2CC)cc1
GRK4 (Homo sapiens, UniProt P32298): 100%
PRKG2 (Homo sapiens, UniProt Q13237): 82%
MAP3K12 (Homo sapiens, UniProt Q12852): 52%
MINK1 (Homo sapiens, UniProt Q8N4C8): 68%
FLT1 (Homo sapiens, UniProt P17948): 97%
MAP3K15 (Homo sapiens, UniProt Q6ZN16): 73%
PIP4K2C (Homo sapiens, UniProt Q8TBX8): 49%
FLT3 (Homo sapiens, UniProt P36888, K663Q): 100%
LATS2 (Homo sapiens, UniProt Q9NRM7): 97%
PIK3CA (Homo sapiens, UniProt P42336, H1047Y): 78%
ACVR2B (Homo sapiens, UniProt Q13705): 93%
ALK (Homo sapiens, UniProt Q9UM73, L1196M): 91%
NEK10 (Homo sapiens, UniProt Q6ZWH5): 82%
BMP2K (Homo sapiens, UniProt Q9NSY1): 87%
EPHB2 (Homo sapiens, UniProt P29323): 100%

Block 2 — tested at: 1 µM; endpoint: remaining binding
SMILES: C[C@H]1CC[C@H](n2c3cnccc3c3cnc(Nc4ccc5c(n4)CCN(C(=O)CO)C5)nc32)CC1
PDGFRA (Homo sapiens, UniProt P16234); DiscoverX KINOMEscan: 62%
CSK (Homo sapiens, UniProt P41240); cell-free assay, competition with immobilised ligand: 89%
MAP2K1 (Homo sapiens, UniProt Q02750); binding, competition with immobilised ligand: 82%
SIK3 (Homo sapiens, UniProt Q9Y2K2); binding, competition with immobilised ligand: 81%
RET (Homo sapiens, UniProt P07949); cell-free assay, competition with immobilised ligand: 49%
EPHA6 (Homo sapiens, UniProt Q9UF33); cell-free assay, competition with immobilised ligand: 89%
STK35 (Homo sapiens, UniProt Q8TDR2); binding, competition with immobilised ligand: 100%
FLT3 (Homo sapiens, UniProt P36888); binding, competition with immobilised ligand: 0.25%
CSF1R (Homo sapiens, UniProt P07333); cell-free assay, competition with immobilised ligand: 0.6%
MAK (Homo sapiens, UniProt P20794); binding: 52%
PRKACB (Homo sapiens, UniProt P22694); cell-free assay, competition with immobilised ligand: 100%

Block 3 — SMILES: O=C1Cc2c([nH]c3ccc(Br)cc23)-c2ccccc2N1; observed: enzyme activity; mode: inhibitor; tested at: 0.5 µM; relative to: control; endpoint: remaining activity
MUSK (Homo sapiens, UniProt O15146): 87.6%
PAK1 (Homo sapiens, UniProt Q13153): 85%
MAP3K20 (Homo sapiens, UniProt Q9NYL2): 88.5%
SRPK1 (Homo sapiens, UniProt Q96SB4): 99.6%
PAK6 (Homo sapiens, UniProt Q9NQU5): 97.8%
SIK2 (Homo sapiens, UniProt Q9H0K1): 63.5%
CSNK1E (Homo sapiens, UniProt P49674): 103%
EPHA2 (Homo sapiens, UniProt P29317): 98.3%
IGF1R (Homo sapiens, UniProt P08069): 103%
EPHA6 (Homo sapiens, UniProt Q9UF33): 93.7%
CLK2 (Homo sapiens, UniProt P49760): 95.7%
TYRO3 (Homo sapiens, UniProt Q06418): 97.7%
CSNK1D (Homo sapiens, UniProt P48730): 104%
FLT1 (Homo sapiens, UniProt P17948): 78.9%
TEC (Homo sapiens, UniProt P42680): 96.4%
CLK1 (Homo sapiens, UniProt P49759): 96.7%
JAK1 (Homo sapiens, UniProt P23458): 102%
PRKCZ (Homo sapiens, UniProt Q05513): 98.3%
CAMKK1 (Homo sapiens, UniProt Q8N5S9): 99.8%
PRKCQ (Homo sapiens, UniProt Q04759): 114%
SGK2 (Homo sapiens, UniProt Q9HBY8): 98.9%
CAMK1 (Homo sapiens, UniProt Q14012): 106%

Block 4 — observed: enzyme activity; mode: inhibitor; tested at: 77 µM; relative to: untreated; endpoint: remaining activity
Target: DNA polymerase theta, ATPase domain (POLQ, Homo sapiens, UniProt O75417)
Sequence of UniProt O75417 (whole entry, unmodified, looked up): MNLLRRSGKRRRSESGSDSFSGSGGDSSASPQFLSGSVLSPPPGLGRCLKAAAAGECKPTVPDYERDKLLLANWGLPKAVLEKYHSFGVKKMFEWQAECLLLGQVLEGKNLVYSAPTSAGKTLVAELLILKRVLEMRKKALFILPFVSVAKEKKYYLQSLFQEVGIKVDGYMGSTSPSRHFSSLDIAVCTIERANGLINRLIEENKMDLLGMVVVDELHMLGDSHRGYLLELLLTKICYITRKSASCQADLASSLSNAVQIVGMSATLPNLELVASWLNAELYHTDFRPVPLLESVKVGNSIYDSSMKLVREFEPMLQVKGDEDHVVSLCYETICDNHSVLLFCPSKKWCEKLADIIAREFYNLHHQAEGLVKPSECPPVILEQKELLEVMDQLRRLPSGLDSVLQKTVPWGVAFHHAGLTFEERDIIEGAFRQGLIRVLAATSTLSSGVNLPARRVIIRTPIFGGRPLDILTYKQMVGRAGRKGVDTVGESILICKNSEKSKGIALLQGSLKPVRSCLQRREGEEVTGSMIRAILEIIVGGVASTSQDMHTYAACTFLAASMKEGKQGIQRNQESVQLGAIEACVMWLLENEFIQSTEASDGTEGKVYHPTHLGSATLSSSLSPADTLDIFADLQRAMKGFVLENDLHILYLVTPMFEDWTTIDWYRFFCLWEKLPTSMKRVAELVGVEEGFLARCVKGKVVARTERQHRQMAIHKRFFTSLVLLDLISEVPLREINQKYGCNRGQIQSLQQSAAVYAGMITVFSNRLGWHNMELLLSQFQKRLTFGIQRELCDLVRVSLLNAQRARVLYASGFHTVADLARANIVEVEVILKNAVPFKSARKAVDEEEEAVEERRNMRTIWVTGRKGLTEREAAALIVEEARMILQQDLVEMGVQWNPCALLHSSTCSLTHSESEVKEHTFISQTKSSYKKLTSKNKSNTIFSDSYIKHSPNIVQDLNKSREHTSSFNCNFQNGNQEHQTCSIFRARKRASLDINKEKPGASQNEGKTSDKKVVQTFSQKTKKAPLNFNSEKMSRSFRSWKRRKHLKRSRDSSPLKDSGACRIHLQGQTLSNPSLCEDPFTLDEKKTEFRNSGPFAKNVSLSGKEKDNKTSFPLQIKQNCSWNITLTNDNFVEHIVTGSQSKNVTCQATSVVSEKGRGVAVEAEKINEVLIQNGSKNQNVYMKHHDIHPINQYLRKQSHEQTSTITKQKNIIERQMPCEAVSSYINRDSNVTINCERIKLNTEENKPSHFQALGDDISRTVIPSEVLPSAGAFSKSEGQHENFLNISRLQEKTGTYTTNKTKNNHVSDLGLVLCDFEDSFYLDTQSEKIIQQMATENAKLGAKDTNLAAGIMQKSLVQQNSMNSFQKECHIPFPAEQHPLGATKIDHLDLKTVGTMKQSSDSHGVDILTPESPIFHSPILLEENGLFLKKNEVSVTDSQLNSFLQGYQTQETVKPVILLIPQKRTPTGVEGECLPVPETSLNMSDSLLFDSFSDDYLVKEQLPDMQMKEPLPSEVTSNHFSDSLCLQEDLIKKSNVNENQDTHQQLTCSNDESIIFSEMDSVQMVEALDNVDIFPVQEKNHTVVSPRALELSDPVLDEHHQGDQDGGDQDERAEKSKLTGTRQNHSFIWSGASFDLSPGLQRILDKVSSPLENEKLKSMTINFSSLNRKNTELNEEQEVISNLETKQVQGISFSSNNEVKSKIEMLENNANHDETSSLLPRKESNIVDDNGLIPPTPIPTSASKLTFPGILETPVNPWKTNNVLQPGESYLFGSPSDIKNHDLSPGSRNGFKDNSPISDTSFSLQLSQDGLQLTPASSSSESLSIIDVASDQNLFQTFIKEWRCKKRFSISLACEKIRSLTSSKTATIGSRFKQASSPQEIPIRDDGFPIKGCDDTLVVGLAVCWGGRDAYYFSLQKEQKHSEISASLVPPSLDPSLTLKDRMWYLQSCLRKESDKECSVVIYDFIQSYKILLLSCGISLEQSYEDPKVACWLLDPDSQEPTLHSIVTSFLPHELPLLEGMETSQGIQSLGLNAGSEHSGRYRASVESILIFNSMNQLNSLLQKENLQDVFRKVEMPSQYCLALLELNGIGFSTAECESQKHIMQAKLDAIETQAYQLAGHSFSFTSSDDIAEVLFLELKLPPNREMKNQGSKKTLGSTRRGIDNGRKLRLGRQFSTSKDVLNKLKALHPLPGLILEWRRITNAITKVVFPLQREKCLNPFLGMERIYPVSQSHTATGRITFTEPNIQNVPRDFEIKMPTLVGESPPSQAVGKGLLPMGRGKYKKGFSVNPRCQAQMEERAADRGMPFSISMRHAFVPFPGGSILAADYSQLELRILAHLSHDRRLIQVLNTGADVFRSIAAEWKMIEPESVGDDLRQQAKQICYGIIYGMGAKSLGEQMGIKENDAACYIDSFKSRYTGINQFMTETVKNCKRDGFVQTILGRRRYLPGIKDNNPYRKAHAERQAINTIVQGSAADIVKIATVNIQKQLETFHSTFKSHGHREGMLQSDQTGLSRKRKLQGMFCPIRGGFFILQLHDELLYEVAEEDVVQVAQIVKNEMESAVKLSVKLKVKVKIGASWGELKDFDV
COc1ccc(CNCc2cccc3ccccc23)cc1: 105%
Nc1ccc(S(=O)(=O)Nc2nccs2)cc1: 107% and 73.8%
CC(NC(=O)[C@H](Cc1ccccc1)NC(=O)OCc1ccccc1)C(=O)CF (some centres unmarked): 101%
C=C1C(=O)O[C@@H]2[C@H]3O[C@]3(C)CC/C=C(\C)CC[C@@H]12: 127%
C[C@H](Nc1ncnc2nc[nH]c12)c1cc2cccc(Cl)c2c(=O)n1-c1ccccc1: 110%
CN(C)CCN(Cc1ccccc1)c1ccccn1: 98.7%
CC(=O)Nc1cccc(-n2c(=O)n(C3CC3)c(=O)c3c(Nc4ccc(I)cc4F)n(C)c(=O)c(C)c32)c1: 99.3%
Clc1cnccn1: 101%
NC(=O)c1ccc(I)c([N+](=O)[O-])c1: 104%
COCC(=O)Nc1c(I)c(C(=O)NCC(O)CO)c(I)c(C(=O)N(C)CC(O)CO)c1I (mixture of isomers): 91.3%
COc1ccc(C(=O)CC(=O)c2ccc(C(C)(C)C)cc2)cc1: 98.8%
COc1ccc(Cl)cc1NC(=O)Nc1cc(C)nc2ccccc12: 119%
CC(C)(C)C(=O)OCOP(=O)(COCCn1cnc2c(N)ncnc21)OCOC(=O)C(C)(C)C: 95.6%
O=C(O)c1cccnc1: 99.9% and 97.9%
Cc1cc(Nc2cc(N3CCN(C)CC3)nc(Sc3ccc(NC(=O)C4CC4)cc3)n2)n[nH]1: 96.3% and 103% and 99.9% and 102%
CCOC(=O)n1ccn(C)c1=S: 91% and 90.9%
O=C(O)/C(S)=C/c1c[nH]c2ccc(F)cc12: 85.9%

For quick reference, copied from above (block 1):
MAP3K12 (Homo sapiens, UniProt Q12852): 52%
ALK (Homo sapiens, UniProt Q9UM73, L1196M): 91%
ACVR2B (Homo sapiens, UniProt Q13705): 93%
LATS2 (Homo sapiens, UniProt Q9NRM7): 97%
NEK10 (Homo sapiens, UniProt Q6ZWH5): 82%
